Measured values from different studies.
Each line is one published result; not all experiments were run side by side.
Organism: Enterococcus faecalis

SMILES	assay	test system	conditions	MIC
CN(C)CCCNCCCNC(=O)[C@@H]1NC(=O)[C@@H]2Cc3ccc(cc3)Oc3cc4cc(c3O)-c3ccc5c(c[nH]c5c3)C[C@@H](NC(=O)C(N)c3ccc(O)cc3)C(=O)N[C@H](c3ccc(O)cc3)C(=O)N[C@H]4C(=O)N[C@@H](C(=O)N2C)c2ccc(cc2)Oc2cc1ccc2O (some centres unmarked)		brain heart infusion medium		16 µg/mL
CN[C@@H]1[C@H](O)[C@H](NC)[C@H]2O[C@]3(O)[C@H](O[C@@H]2[C@H]1O)O[C@H](C)C[C@@]3(O)CNCc1ccc(OC(F)(F)F)cc1		ATCC 33186		25 to 50 µg/mL
CN1C(=O)[C@@H]2NC(=O)[C@@H]3NC(=O)[C@@H](c4ccc(O)cc4)NC(=O)[C@H](NC(=O)C(NCc4ccccn4)c4ccc(O)cc4)Cc4c[nH]c5cc(ccc45)-c4cc3cc(c4O)Oc3ccc(cc3)C[C@H]1C(=O)N[C@@H](C(=O)O)c1ccc(O)c(c1)Oc1ccc2cc1 (some centres unmarked)		brain heart infusion medium		16 µg/mL
N=C(N)NCCC[C@H](NC(=O)[C@H](Cc1c[nH]c2ccccc12)NC(=O)[C@H](CCC(N)=O)NC(=O)[C@H](Cc1c[nH]c2ccccc12)NC(=O)[C@H](CCCNC(=N)N)NC(=O)[C@H](Cc1c[nH]c2ccccc12)NC(=O)[C@H](CCC(N)=O)NC(=O)[C@H](Cc1c[nH]c2ccccc12)NC(=O)[C@@H](N)CCCNC(=N)N)C(=O)NCCCC[C@H](NC(=O)[C@H](CCCNC(=N)N)NC(=O)[C@H](Cc1c[nH]c2ccccc12)NC(=O)[C@H](CCC(N)=O)NC(=O)[C@H](Cc1c[nH]c2ccccc12)NC(=O)[C@H](CCCNC(=N)N)NC(=O)[C@H](Cc1c[nH]c2ccccc12)NC(=O)[C@H](CCC(N)=O)NC(=O)[C@H](Cc1c[nH]c2ccccc12)NC(=O)[C@@H](N)CCCNC(=N)N)C(=O)NCCCCCC(N)=O	broth microdilution	ATCC 29212	24 h, 37 °C	31 µM
Cc1ccc2nc(C)c(C(=O)NCc3cccs3)n2c1	microbial growth, broth dilution			> 64 µM
COc1cccc(C2Nc3ccccc3C3=[O+][Cu-2]4([Cl])[O]c5c(cccc5OC)C=[N+]4N32)c1O (centres unmarked)	broth microdilution	vancomycin-resistant 368	24 h	> 256 µg/mL
CC1=C[C@@]2(C)C(=C(C)[C@H]3[C@@H]4C[C@H](C)C[C@H](C)[C@H]4[C@H]4Oc5ccc(cc5)C[C@]5(O)NC(=O)[C@]6(O[C@H]65)C(=O)[C@@H]2[C@@H]43)[C@H]1C	microbial growth, broth dilution	ATCC51299	drug-resistant strain	3.1 µM
Oc1ccccc1C1Nc2ccccc2C2=[O+][Cu-2]3([Cl])[O]c4ccccc4C=[N+]3N21 (centres unmarked)	broth microdilution	vancomycin-resistant 368	24 h	256 µg/mL
Cc1cccc(-c2nc(Nc3ccncn3)c3sccc3n2)n1	microbial growth, broth dilution			> 64 µM
CC[C@H](C)[C@H](NC(=O)[C@@H](Cc1ccccc1)NC)C(=O)OC[C@H](N)C(=O)N[C@H](CCC(N)=O)C(=O)N[C@@H](C(=O)N[C@H](C(=O)OC[C@H](N)C(=O)N[C@H]1C(=O)N[C@@H](C)C(=O)N[C@@H](C2CCCCC2)C(=O)N[C@@H]([C@@H](C)CC)C(=O)O[C@H]1C)[C@@H](C)CC)[C@@H](C)CC	broth microdilution	ATCC 51299, vancomycin-resistant, brain heart infusion broth	16 h, 37 °C	1 µg/mL
CN1C(=O)[C@@H]2NC(=O)[C@@H]3NC(=O)[C@@H](c4ccc(O)cc4)NC(=O)[C@H](NC(=O)C(NCc4cccc(C(F)(F)F)c4)c4ccc(O)cc4)Cc4c[nH]c5cc(ccc45)-c4cc3cc(c4O)Oc3ccc(cc3)C[C@H]1C(=O)N[C@@H](C(=O)O)c1ccc(O)c(c1)Oc1ccc2cc1 (some centres unmarked)		brain heart infusion medium		8 µg/mL

Excerpt of the above:
SMILES	assay	test system	conditions	MIC
N=C(N)NCCC[C@H](NC(=O)[C@H](Cc1c[nH]c2ccccc12)NC(=O)[C@H](CCC(N)=O)NC(=O)[C@H](Cc1c[nH]c2ccccc12)NC(=O)[C@H](CCCNC(=N)N)NC(=O)[C@H](Cc1c[nH]c2ccccc12)NC(=O)[C@H](CCC(N)=O)NC(=O)[C@H](Cc1c[nH]c2ccccc12)NC(=O)[C@@H](N)CCCNC(=N)N)C(=O)NCCCC[C@H](NC(=O)[C@H](CCCNC(=N)N)NC(=O)[C@H](Cc1c[nH]c2ccccc12)NC(=O)[C@H](CCC(N)=O)NC(=O)[C@H](Cc1c[nH]c2ccccc12)NC(=O)[C@H](CCCNC(=N)N)NC(=O)[C@H](Cc1c[nH]c2ccccc12)NC(=O)[C@H](CCC(N)=O)NC(=O)[C@H](Cc1c[nH]c2ccccc12)NC(=O)[C@@H](N)CCCNC(=N)N)C(=O)NCCCCCC(N)=O	broth microdilution	ATCC 29212	24 h, 37 °C	31 µM
